Experimental data gathered from unrelated publications.
A part holds a random share of what one study measured. Changes are numbered by the printed parent chain.
Chain of UniProt Q8RYC6 (whole entry, looked up): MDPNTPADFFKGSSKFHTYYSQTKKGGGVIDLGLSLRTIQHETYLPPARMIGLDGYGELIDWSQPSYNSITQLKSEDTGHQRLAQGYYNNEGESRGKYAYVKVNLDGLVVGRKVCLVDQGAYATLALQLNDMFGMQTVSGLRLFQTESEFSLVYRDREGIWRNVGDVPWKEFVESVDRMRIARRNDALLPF
Chain of UniProt Q93WC4 (whole entry, looked up): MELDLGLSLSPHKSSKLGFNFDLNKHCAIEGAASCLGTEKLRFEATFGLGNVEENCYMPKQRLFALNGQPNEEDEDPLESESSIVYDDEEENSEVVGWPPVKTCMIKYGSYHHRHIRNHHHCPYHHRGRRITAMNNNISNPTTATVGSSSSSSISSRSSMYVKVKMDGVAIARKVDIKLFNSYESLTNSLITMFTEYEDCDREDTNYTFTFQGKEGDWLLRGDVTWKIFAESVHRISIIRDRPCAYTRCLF
Chain of UniProt Q9ZTX8 (whole entry, looked up): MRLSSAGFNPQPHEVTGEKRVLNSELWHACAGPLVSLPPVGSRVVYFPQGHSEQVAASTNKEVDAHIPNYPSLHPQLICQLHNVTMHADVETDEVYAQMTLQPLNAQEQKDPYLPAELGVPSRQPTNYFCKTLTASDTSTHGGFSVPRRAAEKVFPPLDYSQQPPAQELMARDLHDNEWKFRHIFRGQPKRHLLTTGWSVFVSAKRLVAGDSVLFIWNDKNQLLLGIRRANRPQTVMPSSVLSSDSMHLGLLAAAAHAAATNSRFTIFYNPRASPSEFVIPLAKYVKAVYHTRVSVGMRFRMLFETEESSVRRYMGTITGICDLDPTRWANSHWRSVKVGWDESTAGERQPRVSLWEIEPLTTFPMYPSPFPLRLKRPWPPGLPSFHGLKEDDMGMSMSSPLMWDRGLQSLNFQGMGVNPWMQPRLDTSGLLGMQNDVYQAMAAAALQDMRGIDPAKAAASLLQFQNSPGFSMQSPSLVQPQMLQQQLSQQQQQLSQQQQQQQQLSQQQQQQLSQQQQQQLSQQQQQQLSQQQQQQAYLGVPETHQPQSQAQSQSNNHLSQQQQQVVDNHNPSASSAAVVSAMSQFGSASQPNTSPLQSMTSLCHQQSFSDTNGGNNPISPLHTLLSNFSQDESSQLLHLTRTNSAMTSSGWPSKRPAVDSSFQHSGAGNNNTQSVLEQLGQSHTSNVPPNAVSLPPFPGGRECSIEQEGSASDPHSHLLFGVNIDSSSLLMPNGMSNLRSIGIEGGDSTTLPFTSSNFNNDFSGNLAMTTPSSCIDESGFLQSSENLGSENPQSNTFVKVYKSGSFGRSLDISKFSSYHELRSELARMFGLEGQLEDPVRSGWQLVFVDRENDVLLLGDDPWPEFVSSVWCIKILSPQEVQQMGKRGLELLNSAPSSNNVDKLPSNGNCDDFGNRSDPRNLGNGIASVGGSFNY
Chain of UniProt P93024 (whole entry, looked up): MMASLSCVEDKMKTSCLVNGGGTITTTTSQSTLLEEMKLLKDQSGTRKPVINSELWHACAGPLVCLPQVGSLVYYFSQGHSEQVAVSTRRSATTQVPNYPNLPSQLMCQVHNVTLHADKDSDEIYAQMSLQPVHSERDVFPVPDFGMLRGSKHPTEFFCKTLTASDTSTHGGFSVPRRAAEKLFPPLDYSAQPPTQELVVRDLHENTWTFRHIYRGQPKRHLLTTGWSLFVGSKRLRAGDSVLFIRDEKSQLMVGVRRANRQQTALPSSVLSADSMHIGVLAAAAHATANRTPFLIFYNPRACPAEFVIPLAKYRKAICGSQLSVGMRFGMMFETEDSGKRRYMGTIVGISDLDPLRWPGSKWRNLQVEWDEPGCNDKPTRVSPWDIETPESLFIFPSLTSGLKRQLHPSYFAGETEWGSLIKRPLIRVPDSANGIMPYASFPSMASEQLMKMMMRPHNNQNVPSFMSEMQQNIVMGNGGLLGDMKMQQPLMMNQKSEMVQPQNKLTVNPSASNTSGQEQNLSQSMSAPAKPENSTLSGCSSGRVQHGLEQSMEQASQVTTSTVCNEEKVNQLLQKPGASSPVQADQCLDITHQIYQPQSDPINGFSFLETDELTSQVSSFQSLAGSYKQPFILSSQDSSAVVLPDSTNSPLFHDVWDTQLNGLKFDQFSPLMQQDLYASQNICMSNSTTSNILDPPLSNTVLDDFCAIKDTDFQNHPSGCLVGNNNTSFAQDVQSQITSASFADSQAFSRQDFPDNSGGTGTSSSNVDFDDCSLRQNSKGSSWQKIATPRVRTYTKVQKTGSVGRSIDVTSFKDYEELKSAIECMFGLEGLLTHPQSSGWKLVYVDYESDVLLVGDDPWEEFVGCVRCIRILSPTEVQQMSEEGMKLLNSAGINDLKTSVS
Chain of UniProt Q9ZSY8 (whole entry, looked up): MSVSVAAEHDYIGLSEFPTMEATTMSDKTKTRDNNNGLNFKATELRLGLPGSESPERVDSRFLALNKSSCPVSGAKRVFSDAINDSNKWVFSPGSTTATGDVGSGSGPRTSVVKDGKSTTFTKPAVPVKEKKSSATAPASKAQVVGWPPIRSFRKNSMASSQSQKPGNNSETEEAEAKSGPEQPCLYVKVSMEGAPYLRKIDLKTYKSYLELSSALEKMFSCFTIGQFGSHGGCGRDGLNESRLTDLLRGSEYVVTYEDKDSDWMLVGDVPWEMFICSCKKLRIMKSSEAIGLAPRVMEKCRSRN
Chain of UniProt O24409 (whole entry, looked up): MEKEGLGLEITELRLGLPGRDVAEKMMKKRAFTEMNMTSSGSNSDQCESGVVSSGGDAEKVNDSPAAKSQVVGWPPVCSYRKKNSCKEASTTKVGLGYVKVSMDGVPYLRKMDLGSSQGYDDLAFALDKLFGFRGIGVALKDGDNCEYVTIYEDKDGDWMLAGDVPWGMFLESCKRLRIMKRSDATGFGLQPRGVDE

Set 1 — method: RNA Bind-n-Seq; molecule type: RNA; sample: in vitro; tested at: not given; reference: input RNA pool; reading: higher = stronger binding
Target: RING finger protein unkempt homolog, zinc fingers 1-6, GST-SBP tag (UNK, Homo sapiens, UniProt Q9C0B0, residues 30-357)
Notes: RNA with constant flanks, human-mouse chimeric sites, ends assumed
Shared flanks, not repeated: GGGAGUUCUACAGUCCGACGAUC … CAACAGAGGAUUGAGCAUCA
Residues (chain): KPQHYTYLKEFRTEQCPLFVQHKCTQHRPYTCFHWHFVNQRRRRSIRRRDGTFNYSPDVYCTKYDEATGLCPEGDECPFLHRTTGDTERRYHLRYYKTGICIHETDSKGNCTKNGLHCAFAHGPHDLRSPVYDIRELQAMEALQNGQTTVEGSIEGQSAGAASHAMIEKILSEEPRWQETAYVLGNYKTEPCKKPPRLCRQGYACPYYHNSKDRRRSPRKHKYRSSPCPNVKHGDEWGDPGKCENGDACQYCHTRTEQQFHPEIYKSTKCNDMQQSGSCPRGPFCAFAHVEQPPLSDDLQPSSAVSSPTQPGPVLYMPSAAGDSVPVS
Oligonucleotide | bound/input enrichment [ratio]
UAUAUCACCAAUGUCCUACAAAAUCCUGACUUGGCUCUGAGAAUGGCUGUGCGGAACAACUUAGCUGGUGCUGAAGAACUCUUUGCCCGGAAAUUUAAUGCUCUUUUUGCCCAGGGAAAC | 0.284
UAAGUUAUUUUGUACAGCUUUGUAAAUUGUAUAGCUUUUUAUAUUGCCAUGUUUAUUUUUUUUAGAUAAUUUGGUUCAUUAAGUACAUAGCUAAGGUAAUGAACAUCUUUUUCAGUAAUU | 2.58
UGGGCACUCUAUCAGAUAUAUUAAUUUUUUAAUGUAGAUGUAAUUUUAAAAAUGAAUGGCUACUUUACACGUUUAACUAGGGUUUUACUAUAUAUGUGUACAUAUGUAUAUAUAUAUAUA | 12.2
AAUUUCCGCAACUGUUUUUUAGACAUUCACAUCAGACUUACAGAGCACCUGGCCACAUUCUAGGUUUGAAUUAUUUCUCAGCUAUGGAUAUGAUCAAAUGAGAACACUGCUUAACUAAUG | 0.803
AUAGAUGAAAUUGAUGUAGAUCAGGAAGGAAUUGCUGAAAUGAUCCUGGAUGAAAAUGCUAUUGCUCAGGUCCCACGCCCUGGCACAUCUUUGAAACUCCCUGGCACUAACCAAACAGGA | 0.468
UCGGAUGAGGUGCUGGGUCACUUUUCAUAUCCUGAUCCUUCACAGUGGACAGAUGAAGAACUGGGAAUCCCUCCUGAUGACGAGGACUGACACUGUAAACUCUCUGGACGAGUAGGAGCA | 0.702
CUGGCCUUCUGAGCAUCAGGGGCCUCCUUUCGUAUAGUCACUGCUUCUGCAUCAGAUACUUUCAGCUCCAAGUCCUGACUGGGUGGGGCACCCAUUUCAGGCAGAAGGUUUUGGUACCCU | 0.158
AACUUCGUGCAUCGGUUUCCUUUUGUAGCUGUUUCAAUUGGCUUCCUUGUGAAUAAAGAGAUGGAGUUUGGAGUUGUGUACAGCUGUGUGGAAGAUAAGAUGUACACCGGCAGGAAAGGG | 0.43
UGUAGUUUCUUGAUUUAUCAUUUUUCUUGCUCGGGUUUUUCCUUUAGGAAAAGCCUAAAGAUUAGGUUGUAAGAAAAACAGAAGCCAUGUUUCGAAGACCUGUGUUACAGGUAUUUCGUC | 0.17
GAUAAGAAAAACUUGUUGGAGACCCGCUUGCAUGUCACUGGUAGAGAACUGAGGUCCCAAAUAGCUGAAACUUUCGGAUUUCAAGAAAAUUACAUCAAGAUCGUAAUAAAUAAGAAACAG | 0.659
UGACAAGGGCACUGCAGAGCCAUGCCUUUCCUUGACAUACAGAAAAAGCUGGGCAUCAGCCUGGACCGAUGGUUGACGUUCCUAAGCGCAGAACAGCCCUAUAAGAACGCCGCUCGGUGC | 0.064

Set 2 — Molecule: B1 (IAA18); method: two-hybrid; reference: out of 4 tests; reading: higher = firmer interaction
B1: IAA18 (Arabidopsis thaliana, UniProt O24408); chain MEGYSRNGEISPKLLDLMIPQERRNWFHDEKNSVFKTEEKKLELKLGPPGEEDDDESMIRHMKKEPKDKSILSLAGKYFSPSSTKTTSHKRTAPGPVVGWPPVRSFRKNLASGSSSKLGNDSTTSNGVTLKNQKCDAAAKTTEPKRQGGMFVKINMYGVPIGRKVDLSAHNSYEQLSFTVDKLFRGLLAAQRDFPSSIEDEKPITGLLDGNGEYTLTYEDNEGDKMLVGDVPWQMFVSSVKRLRVIKTSEISSALTYGNGKQEKMRR
partner | positive tests
IAA29 (Arabidopsis thaliana, UniProt Q93WC4) | 0
ARF6 790-935 (Arabidopsis thaliana, UniProt Q9ZTX8) | 3
IAA19 (Arabidopsis thaliana, UniProt O24409) | 1
IAA32 (Arabidopsis thaliana, UniProt Q8RYC6) | 0
ARF5 788-902 (Arabidopsis thaliana, UniProt P93024) | 2
IAA27 (Arabidopsis thaliana, UniProt Q9ZSY8) | 2

Set 3 — method: DHFR PCA, deep sequencing; sample: yeast; together with: (+)-ABA 1.4 µM; reference: wild-type fitted maximum; reading: higher = stronger binding
Target: ABI1, truncated, D143A, DHFR fusion (Arabidopsis thaliana)
Notes: methotrexate growth selection, single substitutions
Parent: PYL1, truncated, DHFR fusion (Arabidopsis thaliana); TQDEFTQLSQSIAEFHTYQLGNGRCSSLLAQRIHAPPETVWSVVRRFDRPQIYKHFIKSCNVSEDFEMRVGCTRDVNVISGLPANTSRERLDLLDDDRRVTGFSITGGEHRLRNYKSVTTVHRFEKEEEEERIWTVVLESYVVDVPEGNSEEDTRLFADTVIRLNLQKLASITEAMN; partner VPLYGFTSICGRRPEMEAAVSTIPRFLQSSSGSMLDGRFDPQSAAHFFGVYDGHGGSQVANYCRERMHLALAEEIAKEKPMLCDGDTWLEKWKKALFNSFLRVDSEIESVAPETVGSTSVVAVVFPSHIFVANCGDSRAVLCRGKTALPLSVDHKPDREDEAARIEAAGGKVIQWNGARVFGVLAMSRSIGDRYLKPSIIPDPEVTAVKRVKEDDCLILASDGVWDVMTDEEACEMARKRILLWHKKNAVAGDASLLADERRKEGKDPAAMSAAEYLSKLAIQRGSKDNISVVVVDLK
Substitution | relative binding score
I79H | 48.5%
I133T | 70.5%
N85I | 57.4%
Q51M | 3.1%
E64C | 35.3%
D3A | 55%
R113F | 15%
I52S | 39%
S9W | 33.9%
T6E | 78.8%
E147L | 34.9%
V43F | 2.92%
I79N | 8.52%
S117E | -14.7%
L20D | 56.3%
E127W | 39.6%
V143I | -6.18%
R69G | 34.2%
L164D | -0.709%
K126R | 67.2%
S63D | 57.6%

Set 4 — target: CCNE1, cyclin fold, Cln2 fusion (human); method: yeast growth competition, sequencing; sample: yeast; notes: weak parent motif; reference: not given; reading: higher = stronger binding
Parent: SAMHD1 docking peptide (human); ASKSRVQLFKDDP
Substitution | normalised enrichment score
R5M | -0.166
V6R | 3.38
K10Q | 0.314
S4L | 0.0987
D12L | 0.0649
D12Y | 0.664
S2F | -0.0808
V6P | -0.443
F9K | -0.253
L8S | -0.109
S4A | 1.94
D11Y | 0.0589
S2I | 0.143
F9I | 0.184
F9H | 0.0629
D12R | 0.128
R5P | -0.309
S2Q | 0.0137
F9W | 0.235
S2D | 0.294

Set 5 — method: protein-binding microarray; molecule type: double-stranded DNA, one strand shown; sample: in vitro; tested at: 250 nM; notes: 60-bp whole probe; together with: salmon DNA 0.4 mg/ml; reference: random background probes; reading: higher = stronger binding; shared flanks, not repeated: GCCTAGCAC … GTCTTGATTCGCTTGACGCTGCTG
Target: Interferon regulatory factor 5, full length, phosphomimetic (IRF5, Homo sapiens, UniProt Q13568-2, residues 1-514, K96S/S451D/S453D/S456D/S462D)
Oligonucleotide | log fluorescence [z-score]
TTAGGTTTCCTCTCCCTTTAGTGCTAG | 0.525
TCACATTTTGGTTTTCAACTGTGCTAG | 1.41
GCACGGCTCGTTATCCTATAGTGCTAG | -0.525
GACGGTATCGGGCTGGGGACGTGCTAG | 1.08
GACGGTATCGGGACGGGGGACGTGCTA | 2.98
TTAGGTATCTGTCTCGGTTAGTGCTAG | 1.48
GACGGTATCGACTATGGGGACGTGCTA | 2.26
TTTGGTCTCGGTATCGGTTAGTGCTAG | 6.3
TTAGGTCTCCTCATCCTTTAGTGCTAG | -0.297
GACGTTCTCAGTCTCGAGACGTGCTAG | 0.00759
TTAGATATGAGTATCGATTAGTGCTAG | 6.52
GACGGACCGGACTATCGGGACGTGCTA | 0.949
GACGAACTGAGACTGGAAACGTGCTAG | -0.172
GACGATATCGGGTCTGGAGACGTGCTA | 1.26
TTCTGAAGCAGAGCCCTGTTGTGCTAG | -0.287
CTGGGGGCAGTTTCATGGCCGTGCTAG | 0.747
TCAATGATCCAGTTTTACACTGTGCTA | 0.181
GGCGATATCAGACTGGAGACGTGCTAG | 0.073
GACGGTCTCGGACTGGGAACGTGCTAG | -0.559
TCAAAATTGTCTCTGTCACTGTGCTAG | 0.736
GACGGAATGGGACTGGGGACGTGCTAG | -0.556

Repeated from above (set 3):
Substitution | relative binding score
I52S | 39%
I79H | 48.5%
E64C | 35.3%
I79N | 8.52%
L164D | -0.709%
S63D | 57.6%
